# Measured values gathered from unrelated publications.
# Numbered parts are unrelated; each lists some results of a single study. Changes are numbered by the printed parent chain.

# Study 1
# Target: ABI1, truncated, D143A, DHFR fusion (Arabidopsis thaliana)
# Method: DHFR PCA, deep sequencing
# Sample: yeast
# Setting: methotrexate growth selection, single substitutions
# Together with: (+)-ABA 58 µM
# Relative to: wild-type fitted maximum
# Direction: higher = stronger binding
# Starting sequence: PYL1, truncated, DHFR fusion (Arabidopsis thaliana); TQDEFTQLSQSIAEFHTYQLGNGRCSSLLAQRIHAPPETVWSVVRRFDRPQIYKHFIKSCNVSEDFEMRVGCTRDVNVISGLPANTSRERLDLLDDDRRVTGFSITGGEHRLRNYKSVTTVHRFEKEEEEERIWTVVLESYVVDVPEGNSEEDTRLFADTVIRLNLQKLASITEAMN
Substitution,relative binding score [%]
I79P,18.9
F15M,64.2
N149I,35.3
K126Y,94.6
G71L,10.6
T1S,84.4
T160H,73.5
N22H,96.8
D97E,94.8
S150P,16.3
S87F,3.31
D3E,86.9
S80A,22.3
Y141Q,-4.6

# Study 2
# Target: ATF1, bZIP domain (human)
# Method: DHFR protein complementation
# Sample: yeast
# Setting: single substitutions, most at no-binding floor
# Relative to: wild-type JUN-FOS pair
# Direction: higher = stronger binding
# Starting sequence: JUN, bZIP domain (human); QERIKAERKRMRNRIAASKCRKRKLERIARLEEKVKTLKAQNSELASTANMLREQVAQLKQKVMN; partner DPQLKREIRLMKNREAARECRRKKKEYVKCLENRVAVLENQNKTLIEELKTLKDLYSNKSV
Substitution,binding fitness
K34P,-1.55 natural log
A57R,-1.51 natural log
A57G,-1.5 natural log
A29K,-1.42 natural log
N42K,-1.48 natural log
Q55V,-1.49 natural log
K36M,-1.3 natural log
L31R,-1.53 natural log
A49P,-1.53 natural log
V56Q,-1.58 natural log
R53F,-1.6 natural log
M51I,-1.46 natural log
I28Y,-1.41 natural log
R30E,-1.42 natural log
L45C,-1.49 natural log
S47A,-1.48 natural log

# Study 3
# Target: Probable WRKY transcription factor 11, DNA-binding domain (WRKY11, Arabidopsis thaliana, UniProt Q9SV15, residues 228-325)
# Method: DNA-protein interaction ELISA
# Molecule type: double-stranded DNA, one strand shown
# Sample: in vitro, bacterial lysate
# Concentration: not given
# Setting: whole dsDNA probe, crude lysate protein
# Relative to: highest signal in screen
# Direction: higher = stronger binding
# Construct (chain): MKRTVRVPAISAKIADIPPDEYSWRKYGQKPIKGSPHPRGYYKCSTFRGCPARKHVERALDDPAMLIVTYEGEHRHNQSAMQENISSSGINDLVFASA
Sequence,relative absorbance
AAAAAAGGCCGTTGGACCTCGGTCTAAAAA,17.6 % of maximum
AAAAAATCTTCACCTCACTTCGGTTTAAAA,18.2 % of maximum
AAAAAAGTTTCTGCTTTCCCTTTCGTAAAA,15 % of maximum
AAAAAACTCGACATAGAATGCGGAAAAAAA,16.7 % of maximum
AAAAAATCCTATCTTGGCTTTGGCCTAAAA,15.6 % of maximum
AAAAAATATCTGATCCAATTTAGGTCAAAA,43.5 % of maximum
AAAAAATTTCTATTTCATCTTTGCCCAAAA,17.6 % of maximum
AAAAAACACGCCATTGACACTGGTAAAAAA,43.5 % of maximum
AAAAAAGTACGGATGCCCGCGCGTATAAAA,17 % of maximum
AAAAAACCGATCATCACATATCACTGAAAA,13.8 % of maximum
AAAAAATGTTTTTTAGAGGTGTGCAAAAAA,14.7 % of maximum
AAAAAATTCAGAGCTTCGAGGTTCCGAAAA,17.6 % of maximum
AAAAAAAATTAGTCTCTTCGTCTCCCAAAA,14.4 % of maximum
AAAAAATTAGCTTATCCTTGCTTGTGAAAA,16.1 % of maximum
AAAAAAAGTATCAAAGCCTAGGGCTGAAAA,13.3 % of maximum
AAAAAAAAAAAAAAAAAAAAAAAAAAAAAA,14 % of maximum
AAAAAATTTGCTCTTTTGGTTTTCACAAAA,17 % of maximum
AAAAAACATAACCGCAAAATCCCTACAAAA,13.8 % of maximum
AAAAAATGGTCGTCGTACTCGTGGTCAAAA,76.7 % of maximum
AAAAAAAGCTTCTATAGCTCCATGGAAAA,12.7 % of maximum

# Study 4
# Target: Interferon regulatory factor 5, full length, phosphomimetic (IRF5, Homo sapiens, UniProt Q13568-2, residues 1-514, S451D/S453D/S456D/S462D)
# Method: protein-binding microarray
# Molecule type: double-stranded DNA, one strand shown
# Sample: in vitro
# Concentration: 940 nM top
# Setting: 60-bp whole probe
# Together with: salmon DNA 0.4 mg/ml
# Relative to: random background probes
# Direction: higher = stronger binding
# Constant ends, left off below: GCCTAGCAC … GTCTTGATTCGCTTGACGCTGCTG
Sequence,fitted relative affinity
TTAGGTTTCGGGCATCGGTTAGTGCTA,8.93 z-score
GACGGTATCGTACTGGGGACGTGCTAG,1.61 z-score
AGCTCTTTCGTTACTTCCTCGTGCTAG,2.91 z-score
GACGGTTTCCTTTCTCTGACGTGCTAG,2.1 z-score
TCAGCTTCCATTTTCTGACTGTGCTAG,0.755 z-score
TTAGGTTTCTACTTTCGGTTAGTGCTA,6.18 z-score
TTAGGTATCGACTATCCGTTAGTGCTA,6.28 z-score
TTAGATTTGGGGTATCGATTAGTGCTA,3.16 z-score
GTAGGTTCCCTTTTCCTTTAGTGCTAG,0.758 z-score
ATATCTAAAAAGTCTCTGGGAGTGCTA,0.614 z-score
GACGGTTTCCTTCCCCTGACGTGCTAG,1.57 z-score
GACGGTTTCCTTATCCTGTCGTGCTAG,2.96 z-score
GACGGTCTCGCACTGGGGACGTGCTAG,0.0946 z-score
TTTTTTTCCTAATTGAACCCGTGCTAG,1.14 z-score
TTAGGTTTCCTTTTCCCTTAGTGCTAG,2.56 z-score
TCATTTTTCTGCTTAGAACTGTGCTAG,0.57 z-score
CTAGGTTTCCTTCTCCTTTAGTGCTAG,1.33 z-score

# Study 5
# Target: CCNA2, cyclin fold, Cln2 fusion (human)
# Method: yeast growth competition, sequencing
# Sample: yeast
# Setting: strong parent motif
# Relative to: not given
# Direction: higher = stronger binding
# Starting sequence: RRM2 docking peptide (human); SKTARRIFQEPTE
Substitution,normalised enrichment score
SKTAARIFQEPTE [R5A],0.351
SKTARRIFQEATE [P11A],0.66
SKTARRIFQEPAE [T12A],0.788
SKTARAIFQEPTE [R6A],0.348
SKTARRIFQEPTA [E13A],0.871
AKTARRIFQEPTE [S1A],0.892

# Other studies, line by line
Substance,target,test,test system,setting,how to read,measurement,result
"PhoQ, residues 284 288 289 292 302 303 SQSLSM","PhoP, residues 12 14 15 18 19 NMSFL (Escherichia coli, UniProt P23836)","Sort-seq, refers to: YFP reporter",E. coli,"PhoQ-PhoP variant library, together with: 10 µM Mg2+","relative to: high Mg2+ state, higher = stronger signaling",fold induction,13

# Excerpt of the above (study 5):
Substitution,normalised enrichment score
SKTARRIFQEATE [P11A],0.66
SKTARAIFQEPTE [R6A],0.348
SKTAARIFQEPTE [R5A],0.351
SKTARRIFQEPAE [T12A],0.788
SKTARRIFQEPTA [E13A],0.871
AKTARRIFQEPTE [S1A],0.892
